Measurements of several laboratories.
Several values in a cell are separate wells, animals, samples, runs or records. Numbers after ± are the reported error.
Grm2: Metabotropic glutamate receptor 2 (Grm2, Rattus norvegicus, UniProt P31421)
GRM4: Metabotropic glutamate receptor 4 (GRM4, Homo sapiens, UniProt Q14833)
E3 ubiquitin-protein ligase NEDD4: E3 ubiquitin-protein ligase NEDD4 (Homo sapiens, UniProt P46934)
GLP1R: Glucagon-like peptide 1 receptor (GLP1R, Homo sapiens, UniProt P43220)
Lysophospholipase-like protein 1: Lysophospholipase-like protein 1 (Mus musculus, UniProt Q3UFF7)
RPA1 N-terminal domain: Replication protein A 70 kDa DNA-binding subunit, N-terminal domain (RPA1, Homo sapiens, UniProt P27694)

Chains of the proteins cited; added tags and fusions are not shown. Residues count along the entry.
UniProt Q14833, 33-912 limits assumed: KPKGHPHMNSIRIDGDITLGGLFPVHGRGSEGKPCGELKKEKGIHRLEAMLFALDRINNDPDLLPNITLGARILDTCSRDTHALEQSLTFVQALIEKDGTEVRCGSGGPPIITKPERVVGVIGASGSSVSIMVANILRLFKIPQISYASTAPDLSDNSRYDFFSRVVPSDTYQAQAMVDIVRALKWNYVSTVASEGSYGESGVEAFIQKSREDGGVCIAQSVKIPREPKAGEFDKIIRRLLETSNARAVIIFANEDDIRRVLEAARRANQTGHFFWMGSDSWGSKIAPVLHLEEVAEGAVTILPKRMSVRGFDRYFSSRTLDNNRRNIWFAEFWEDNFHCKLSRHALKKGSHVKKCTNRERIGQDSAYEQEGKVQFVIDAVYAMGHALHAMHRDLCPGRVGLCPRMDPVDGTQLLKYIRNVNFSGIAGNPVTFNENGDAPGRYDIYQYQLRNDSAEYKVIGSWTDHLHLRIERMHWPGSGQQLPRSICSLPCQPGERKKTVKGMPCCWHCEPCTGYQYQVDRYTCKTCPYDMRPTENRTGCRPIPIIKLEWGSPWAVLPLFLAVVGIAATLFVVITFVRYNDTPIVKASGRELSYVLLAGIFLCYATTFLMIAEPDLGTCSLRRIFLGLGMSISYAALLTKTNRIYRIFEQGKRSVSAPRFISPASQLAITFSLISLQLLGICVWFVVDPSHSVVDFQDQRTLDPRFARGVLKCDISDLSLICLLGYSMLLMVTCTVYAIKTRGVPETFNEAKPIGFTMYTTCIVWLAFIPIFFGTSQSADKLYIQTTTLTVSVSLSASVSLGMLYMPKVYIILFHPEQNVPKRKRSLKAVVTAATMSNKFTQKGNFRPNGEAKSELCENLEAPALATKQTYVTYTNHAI
UniProt P46934, whole entry, looked up: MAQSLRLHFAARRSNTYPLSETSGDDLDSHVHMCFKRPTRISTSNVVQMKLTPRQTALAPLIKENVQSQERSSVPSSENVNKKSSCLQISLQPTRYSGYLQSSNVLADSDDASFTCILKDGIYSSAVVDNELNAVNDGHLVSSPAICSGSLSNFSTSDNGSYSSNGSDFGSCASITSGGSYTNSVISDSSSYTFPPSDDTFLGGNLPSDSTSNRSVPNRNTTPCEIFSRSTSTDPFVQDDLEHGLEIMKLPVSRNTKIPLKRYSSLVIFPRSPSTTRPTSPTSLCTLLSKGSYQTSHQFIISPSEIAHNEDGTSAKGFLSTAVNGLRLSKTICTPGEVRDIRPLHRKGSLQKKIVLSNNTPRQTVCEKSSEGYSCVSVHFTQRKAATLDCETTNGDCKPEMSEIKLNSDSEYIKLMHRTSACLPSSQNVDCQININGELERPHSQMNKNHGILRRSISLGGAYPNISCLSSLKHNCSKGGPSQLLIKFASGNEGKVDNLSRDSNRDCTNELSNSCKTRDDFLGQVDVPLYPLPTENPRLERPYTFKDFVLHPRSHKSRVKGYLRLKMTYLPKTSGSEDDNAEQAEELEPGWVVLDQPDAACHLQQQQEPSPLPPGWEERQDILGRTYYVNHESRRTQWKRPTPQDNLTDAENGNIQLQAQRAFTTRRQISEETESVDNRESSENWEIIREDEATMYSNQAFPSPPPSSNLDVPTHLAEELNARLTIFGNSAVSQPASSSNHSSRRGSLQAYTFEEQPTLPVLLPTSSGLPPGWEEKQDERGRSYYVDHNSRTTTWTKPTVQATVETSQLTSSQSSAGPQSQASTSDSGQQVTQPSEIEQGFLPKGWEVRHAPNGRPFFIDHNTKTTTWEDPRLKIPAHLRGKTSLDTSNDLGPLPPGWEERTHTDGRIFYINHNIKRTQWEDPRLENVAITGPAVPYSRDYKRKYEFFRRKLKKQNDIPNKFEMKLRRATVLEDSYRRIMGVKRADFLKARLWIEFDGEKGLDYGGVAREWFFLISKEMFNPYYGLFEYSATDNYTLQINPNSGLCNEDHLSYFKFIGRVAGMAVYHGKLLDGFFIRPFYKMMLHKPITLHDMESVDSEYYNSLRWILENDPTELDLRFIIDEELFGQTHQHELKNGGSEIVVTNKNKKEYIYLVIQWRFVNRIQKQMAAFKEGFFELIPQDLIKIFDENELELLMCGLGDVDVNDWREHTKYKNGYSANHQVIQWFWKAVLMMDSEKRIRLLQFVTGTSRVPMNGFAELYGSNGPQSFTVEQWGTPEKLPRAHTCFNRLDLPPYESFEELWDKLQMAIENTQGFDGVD
UniProt P43220, whole entry, looked up: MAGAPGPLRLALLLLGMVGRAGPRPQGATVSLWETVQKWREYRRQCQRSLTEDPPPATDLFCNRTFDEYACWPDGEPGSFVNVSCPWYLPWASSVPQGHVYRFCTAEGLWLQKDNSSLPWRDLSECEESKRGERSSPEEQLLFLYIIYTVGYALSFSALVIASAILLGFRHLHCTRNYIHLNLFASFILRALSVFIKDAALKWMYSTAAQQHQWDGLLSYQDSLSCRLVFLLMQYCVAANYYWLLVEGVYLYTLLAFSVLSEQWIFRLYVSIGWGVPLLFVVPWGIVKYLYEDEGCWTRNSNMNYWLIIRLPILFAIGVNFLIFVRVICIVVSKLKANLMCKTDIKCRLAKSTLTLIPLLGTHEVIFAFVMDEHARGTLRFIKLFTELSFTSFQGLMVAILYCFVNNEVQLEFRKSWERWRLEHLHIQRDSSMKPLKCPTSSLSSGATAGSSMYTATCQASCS
UniProt P46154, whole entry: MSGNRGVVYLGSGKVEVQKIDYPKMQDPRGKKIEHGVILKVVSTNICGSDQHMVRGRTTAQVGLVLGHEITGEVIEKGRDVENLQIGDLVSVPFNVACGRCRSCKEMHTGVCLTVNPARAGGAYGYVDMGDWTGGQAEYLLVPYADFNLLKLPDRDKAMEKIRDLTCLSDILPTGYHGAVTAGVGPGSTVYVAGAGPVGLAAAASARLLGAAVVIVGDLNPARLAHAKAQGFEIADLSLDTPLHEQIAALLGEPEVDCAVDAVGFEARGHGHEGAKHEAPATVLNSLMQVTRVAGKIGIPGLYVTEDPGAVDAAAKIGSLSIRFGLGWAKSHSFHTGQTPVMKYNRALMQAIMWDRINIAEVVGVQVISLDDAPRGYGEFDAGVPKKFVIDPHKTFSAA
UniProt Q99797, 36-713 limits assumed: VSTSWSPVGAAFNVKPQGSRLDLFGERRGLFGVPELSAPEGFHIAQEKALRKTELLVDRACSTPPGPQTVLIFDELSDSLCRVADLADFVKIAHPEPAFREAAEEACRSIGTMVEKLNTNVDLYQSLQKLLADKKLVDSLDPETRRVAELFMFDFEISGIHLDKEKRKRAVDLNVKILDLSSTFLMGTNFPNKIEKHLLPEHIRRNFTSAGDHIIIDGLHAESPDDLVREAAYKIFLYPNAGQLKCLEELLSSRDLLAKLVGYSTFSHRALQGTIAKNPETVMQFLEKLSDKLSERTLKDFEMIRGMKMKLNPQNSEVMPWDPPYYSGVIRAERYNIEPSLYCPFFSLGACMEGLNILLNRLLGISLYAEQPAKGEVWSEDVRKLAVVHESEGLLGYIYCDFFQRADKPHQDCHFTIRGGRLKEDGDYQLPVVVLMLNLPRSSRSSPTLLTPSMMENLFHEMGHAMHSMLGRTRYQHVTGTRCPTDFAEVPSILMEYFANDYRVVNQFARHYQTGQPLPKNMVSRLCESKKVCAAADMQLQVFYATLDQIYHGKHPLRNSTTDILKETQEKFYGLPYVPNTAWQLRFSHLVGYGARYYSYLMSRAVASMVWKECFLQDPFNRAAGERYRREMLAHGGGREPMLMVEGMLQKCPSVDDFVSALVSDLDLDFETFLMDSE
UniProt Q96EB6, whole entry: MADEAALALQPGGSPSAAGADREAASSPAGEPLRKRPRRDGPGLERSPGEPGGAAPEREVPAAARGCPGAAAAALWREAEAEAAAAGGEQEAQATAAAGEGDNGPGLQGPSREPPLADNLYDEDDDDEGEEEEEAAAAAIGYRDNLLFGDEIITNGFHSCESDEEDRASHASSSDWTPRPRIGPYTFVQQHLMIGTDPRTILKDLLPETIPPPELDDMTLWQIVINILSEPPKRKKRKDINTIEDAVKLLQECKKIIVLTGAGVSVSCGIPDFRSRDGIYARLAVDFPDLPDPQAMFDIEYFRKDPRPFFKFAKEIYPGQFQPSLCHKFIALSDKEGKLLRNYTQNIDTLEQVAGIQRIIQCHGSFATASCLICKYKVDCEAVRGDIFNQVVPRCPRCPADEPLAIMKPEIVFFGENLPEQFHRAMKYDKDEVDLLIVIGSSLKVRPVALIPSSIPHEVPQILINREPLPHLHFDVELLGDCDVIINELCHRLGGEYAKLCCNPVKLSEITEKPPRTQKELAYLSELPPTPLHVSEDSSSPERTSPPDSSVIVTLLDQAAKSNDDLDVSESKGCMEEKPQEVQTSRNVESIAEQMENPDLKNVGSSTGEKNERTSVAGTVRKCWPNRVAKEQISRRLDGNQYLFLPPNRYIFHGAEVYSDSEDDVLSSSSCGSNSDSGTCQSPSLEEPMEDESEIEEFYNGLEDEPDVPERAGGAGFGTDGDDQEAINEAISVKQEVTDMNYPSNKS
UniProt Q96PU5, whole entry, looked up: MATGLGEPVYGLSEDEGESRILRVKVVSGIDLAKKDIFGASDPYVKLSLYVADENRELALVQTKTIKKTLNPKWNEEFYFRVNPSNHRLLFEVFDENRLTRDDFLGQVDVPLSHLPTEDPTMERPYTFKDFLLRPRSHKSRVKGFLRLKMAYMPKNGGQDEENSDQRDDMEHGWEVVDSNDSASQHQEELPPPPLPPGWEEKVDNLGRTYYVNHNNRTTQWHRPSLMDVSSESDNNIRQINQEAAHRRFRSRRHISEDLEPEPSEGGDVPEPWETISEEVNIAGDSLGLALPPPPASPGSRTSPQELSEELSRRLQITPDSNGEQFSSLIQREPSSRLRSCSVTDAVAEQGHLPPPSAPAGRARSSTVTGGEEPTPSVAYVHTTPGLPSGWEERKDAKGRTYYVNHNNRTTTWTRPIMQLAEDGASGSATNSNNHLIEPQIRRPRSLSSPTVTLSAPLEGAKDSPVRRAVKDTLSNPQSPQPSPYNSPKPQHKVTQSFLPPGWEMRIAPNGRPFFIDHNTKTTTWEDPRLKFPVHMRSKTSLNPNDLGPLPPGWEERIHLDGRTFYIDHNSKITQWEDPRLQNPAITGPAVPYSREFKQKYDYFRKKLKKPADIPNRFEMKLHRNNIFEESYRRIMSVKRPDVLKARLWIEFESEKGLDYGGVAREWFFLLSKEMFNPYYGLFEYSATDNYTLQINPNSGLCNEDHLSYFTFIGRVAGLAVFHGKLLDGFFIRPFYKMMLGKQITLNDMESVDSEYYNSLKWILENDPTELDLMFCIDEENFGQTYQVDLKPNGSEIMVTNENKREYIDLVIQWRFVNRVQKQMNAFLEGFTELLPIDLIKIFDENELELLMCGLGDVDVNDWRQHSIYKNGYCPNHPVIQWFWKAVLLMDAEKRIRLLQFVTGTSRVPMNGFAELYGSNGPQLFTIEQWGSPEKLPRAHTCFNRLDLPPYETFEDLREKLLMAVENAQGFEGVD
UniProt P30291, whole entry: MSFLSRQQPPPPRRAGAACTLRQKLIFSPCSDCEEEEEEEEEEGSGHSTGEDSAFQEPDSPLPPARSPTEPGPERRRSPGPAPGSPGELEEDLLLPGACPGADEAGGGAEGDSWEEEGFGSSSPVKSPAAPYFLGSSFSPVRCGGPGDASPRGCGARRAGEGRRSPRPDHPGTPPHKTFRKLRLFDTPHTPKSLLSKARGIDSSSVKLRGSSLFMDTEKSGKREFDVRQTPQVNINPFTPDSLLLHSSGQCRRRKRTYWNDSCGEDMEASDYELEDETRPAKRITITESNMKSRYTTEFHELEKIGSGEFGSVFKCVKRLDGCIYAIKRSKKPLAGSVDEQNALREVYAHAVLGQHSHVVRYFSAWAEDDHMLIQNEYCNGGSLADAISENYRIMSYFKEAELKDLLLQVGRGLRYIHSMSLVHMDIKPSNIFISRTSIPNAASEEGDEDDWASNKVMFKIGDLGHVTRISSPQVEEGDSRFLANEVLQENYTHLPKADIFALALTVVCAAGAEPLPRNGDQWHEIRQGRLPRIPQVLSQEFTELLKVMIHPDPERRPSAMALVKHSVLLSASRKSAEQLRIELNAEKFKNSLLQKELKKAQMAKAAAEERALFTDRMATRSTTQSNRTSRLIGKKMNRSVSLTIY
UniProt Q96SW2, whole entry: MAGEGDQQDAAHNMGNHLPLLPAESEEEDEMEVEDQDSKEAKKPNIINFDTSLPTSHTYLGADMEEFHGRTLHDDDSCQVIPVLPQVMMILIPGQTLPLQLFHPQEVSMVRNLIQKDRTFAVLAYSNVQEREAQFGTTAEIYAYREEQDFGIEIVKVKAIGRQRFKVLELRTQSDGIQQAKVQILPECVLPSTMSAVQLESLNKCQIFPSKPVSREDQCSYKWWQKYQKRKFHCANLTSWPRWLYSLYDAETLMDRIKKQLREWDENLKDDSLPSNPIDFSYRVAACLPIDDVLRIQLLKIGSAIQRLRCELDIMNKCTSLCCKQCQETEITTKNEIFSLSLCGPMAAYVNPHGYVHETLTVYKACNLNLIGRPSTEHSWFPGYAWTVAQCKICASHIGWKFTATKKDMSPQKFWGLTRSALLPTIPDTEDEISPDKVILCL

CCOc1ccccc1Nc1nnc(SCC(=O)Nc2cc(F)ccc2F)s1 — onset of luminescence reduction (CD28, with CD80 (Homo sapiens, UniProt P10747); NanoBiT complementation; CHO-K1; 100 µM): 30 min
NC(=O)c1cn(-c2ccc(F)cc2)c2ccc(CN3CCCOCC3)cc2c1=O — response (Grm2; calcium mobilization, negative allosteric modulator; 30 µM, together with: glutamate 100 µM; relative to: glutamate maximum): 24.2 ± 3.6%
CC(=O)N[C@@H](CC(C)C)C(=O)N[C@@H](CCCNC(=N)N)C(=O)N[C@@H](CO)C(=O)N[C@@H](CCCNC(=N)N)C(=O)Nc1ccc2c(C)cc(=O)oc2c1 — kcat/Km (MALT1 (Homo sapiens, UniProt Q9UDY8); substrate, fluorogenic peptide hydrolysis; pH 7.5, catalytic domain 285 or 294 nM): 2900 M⁻¹ s⁻¹
NC(=O)c1cn(-c2ccc(F)cc2)c2ccc(OCc3ccncc3)cc2c1=O — response (Grm2; calcium mobilization, negative allosteric modulator; 30 µM, together with: glutamate 100 µM; relative to: glutamate maximum): 1.63 ± 0.33%
COc1ccc(NC(=O)CN2CCCN(S(=O)(=O)c3cc(C)c(Cl)cc3F)CC2)c(OC)c1 — maximal response (GRM4; calcium mobilization, positive allosteric modulator; CHO cells with Gqi5; together with: glutamate; relative to: PHCCC maximal response): 36.9%
CCOC(=O)/C=C/CNCCCN1c2ccccc2CCc2ccccc21 — ubiquitination TR-FRET signal AUC (E3 ubiquitin-protein ligase NEDD4; inhibitor, Ub-TR-FRET; 0.04572 µM, 1 h preincubation, HECT domain, together with: ATP 2 mM; higher = more ubiquitination): 132000 a.u. and 130000 a.u. and 131000 a.u.
O=C(Nc1cccc(F)c1)c1cc(S(=O)(=O)N2CCOCC2)c(Cl)cc1Cl — inhibition (Autotaxin (ENPP2, Homo sapiens, UniProt Q13822); enzyme activity; 10 µM, 2 h, 37 °C, together with: 100 µM LPC 16:0): 55.4 ± 1.7%
COc1ccc(Nc2c(C(=O)O)ccnc2C(=O)O)cc1 — remaining activity (fdhA (Pseudomonas putida, UniProt P46154); inhibitor, spectrophotometric; 200 µM, counterscreen): 78%
CC(C)C[C@H](NC(=O)[C@@H]1CCCN1C(=O)[C@H](CCC(N)=O)NC(=O)c1ccccc1N)C(=O)N[C@@H](CCC(N)=O)C(=O)N[C@@H](C)C(=O)N[C@@H](CCCCN)C(=O)N[C@H](C(=O)N[C@@H](CCC(N)=O)C(=O)NCCNc1ccc([N+](=O)[O-])cc1[N+](=O)[O-])C(C)C — kcat (Mitochondrial intermediate peptidase (MIPEP, Homo sapiens, UniProt Q99797); substrate, FRET peptide hydrolysis): 0.0943 s⁻¹
CCN(CC)Cc1cccc(/C=C/c2nc3ccc(F)cc3c(=O)n2-c2ccccc2Cl)n1 — Hill coefficient (Gria2 (Rattus norvegicus, UniProt P19491); glutamate-induced current, inhibitor, whole-cell patch clamp; HEK293; holding -60 mV, together with: 3 mM glutamate, 30 µM cyclothiazide): 1.72 ± 0.08
O=C(Nc1ccc(C(=O)N2CC(c3nccs3)C2)s1)[C@@H]1CCCN1 — binding (Protein AF-9 (Homo sapiens, UniProt P42568); concentration not given, AF9): no binding
Cc1[nH]c2cc(Cl)cc(Cl)c2c1CCn1cc(CN2CCS(=O)(=O)CC2)nn1 — Emax (GLP1R; cAMP accumulation, positive allosteric modulator, HTRF; 0.6 µM, crude reaction product, together with: GLP-1(9-36) at EC20; relative to: BETP): 95.5%
C[C@H]1N[C@@H](c2c[nH]c3c(=O)[nH]cnc23)[C@H](O)[C@@H]1O — binding free energy ΔG (PNP (Homo sapiens, UniProt P00491); xanthine oxidase coupled; first subunit): -10.4 ± 0.04 kcal/mol
CC(=O)N[C@@H](CCC(N)=O)C(=O)N[C@H](C(=O)N[C@@H](C)C(=O)N[C@@H](CCCNC(=N)N)C(=O)N[C@@H](CCCCNC(=O)CCc1ccc(N=Nc2ccc(N(C)C)cc2)cc1)C(=O)N[C@@H](CO)C(=O)N[C@H](C(=O)NCC(=O)NCC(=O)NCCCNC(=S)Nc1ccc2c(c1)C(=O)OC21c2ccc(O)cc2Oc2cc(O)ccc21)[C@@H](C)O)[C@@H](C)O — kcat/Km (SIRT1 (Homo sapiens, UniProt Q96EB6); substrate, fluorescence kinetics; 7 nM SIRT1): 230000 M⁻¹ s⁻¹
CC(C)n1nnc(-c2cc(O)cc(Nc3ncnn4ccc(CN5CCC(N)CC5)c34)c2)n1 — potency fold increase (AAK1 (Homo sapiens, UniProt Q2M2I8); enzyme activity, inhibitor; relative to: 18): 2 fold
Nc1nc(NCCc2ccc(Cl)cc2)nn1S(=O)(=O)c1ccc2c(c1)CCO2 — probe labelling (Lysophospholipase-like protein 1; activator, gel-based ABPP FP-rhodamine; relative to: DMSO): 1 fold
O=C(Nc1ccc(F)cc1)C12CC1/C(=N\O)c1ccccc1O2 (stereo not drawn) — response (Grm1 (Rattus norvegicus, UniProt P23385); antagonist, calcium mobilization; BHK; concentration not given, together with: glutamate EC80; relative to: maximal glutamate): 16%
CCOC(=O)/C=C/CNCCCN1c2ccccc2CCc2ccc([N+](=O)[O-])cc21 — ubiquitination TR-FRET signal AUC (E3 ubiquitin-protein ligase NEDD4; inhibitor, Ub-TR-FRET; 0.1372 µM, 1 h preincubation, HECT domain, together with: ATP 2 mM; higher = more ubiquitination): 145000 a.u. and 146000 a.u.
O=C(O)CC[C@H](NC(=O)c1cc(C(=O)O)cc([C@H]2CCN[C@@H]2C(=O)O)c1)C(=O)O — specific binding (Grik2 (Rattus norvegicus, UniProt P42260); radioligand binding; Sf9 membranes; 10 µM, homomeric receptor, together with: [3H]kainate): 100 ± 14%
CCCCCN1C(=O)C(O)=C(C(=O)c2ccccc2)C1c1cc(OC)ccc1OC (stereo not drawn) — antagonist activity (FPR1 (Homo sapiens, UniProt P21462); fMLF-induced calcium mobilization, antagonist; HL-60 expressing FPR1; concentration not given, inactive if none at 50 µM): active
Cc1ccc(NC(=O)c2ccc(C)c(S(=O)(=O)Nc3ccc(Br)cc3)c2)c(C(=O)O)c1 — ligand efficiency (RPA1 N-terminal domain; binding, fluorescence polarisation competition; together with: FITC-ATRIP probe): 0.2
CC(C)(Cn1cc(-c2ccc(CO)cc2)nn1)c1c[nH]c2ccccc12 — Emax (GLP1R; cAMP accumulation, positive allosteric modulator, HTRF; 0.6 µM, purified compound, together with: GLP-1(9-36) at EC20; relative to: BETP): 102 ± 4%
CC(=O)N1CCN(c2ccc(Nc3ncc4c(n3)N(C)C(=O)N(c3cc(NC(=O)c5ccc(CN6CCC(N(C)C)C6)c(C(F)(F)F)c5)ccc3C)C4)cn2)CC1 (stereo not drawn) — potency fold increase (FGFR4/Transcription factor ETV6 (Homo sapiens, UniProt P22455+P41212, V550E); cell proliferation; Ba/F3 TEL-FGFR4 V550E; relative to: GNF-7 GI50 over compound GI50): 21 fold
CCOC(=O)/C=C/CNCCCCN1c2ccccc2CCc2ccc(Cl)cc21 — ubiquitination TR-FRET signal AUC (E3 ubiquitin-protein ligase NEDD4-like (NEDD4L, Homo sapiens, UniProt Q96PU5); inhibitor, Ub-TR-FRET; 100 µM, 1 h preincubation, DMSO up to 2%, together with: ATP 2 mM; higher = more ubiquitination): 494000 a.u.
Nc1ncnc2c1c(-c1ccc(C(=O)Nc3cc(OC(F)(F)F)ccn3)cc1)nn2[C@@H]1CCCN(C(=O)C2CC2)C1 — residence time (Tyrosine-protein kinase BTK, non-phosphorylated (BTK, Homo sapiens, UniProt Q06187); TR-FRET binding kinetics; 25 °C, unphosphorylated protein): 42.2 min
O=C(Nc1nccs1)C12CC1/C(=N\O)c1ccccc1O2 (stereo not drawn) — response (GRM4; positive allosteric modulator, calcium mobilization; CHO expressing Gqi5; concentration not given, together with: glutamate EC20; relative to: (±)-PHCCC): 103 ± 8.4%
CC(C)(C)Nc1c(-c2ccc3c(c2)C(=O)N(C2CCC(=O)NC2=O)C3=O)nc2ccccn12 (stereo not drawn) — Dmax (WEE1/CRBN (Homo sapiens, UniProt P30291+Q96SW2); degrader, HiBiT; Jurkat; 5 h): > 98%
Nc1nc(SCc2ccc(Cl)cc2)nn1S(=O)(=O)c1cccc2c1CCCC2 — probe labelling (Lysophospholipase-like protein 1; activator, gel-based ABPP FP-rhodamine; relative to: DMSO): 2.5 fold
NCC(c1ccc(O)cc1)c1ccc(Oc2ccccc2)cc1 (stereo not drawn) — efficacy increase (Trace amine-associated receptor 1 (Rattus norvegicus, UniProt Q923Y9, N287Y); cAMP production, agonist; mutant; relative to: wild type): 12%
Cc1nc(-c2cccc(CO)c2)sc1COc1ccc(CCC(=O)O)cc1 — IC50 (Vitamin D3 receptor (VDR, Homo sapiens, UniProt P11473); reporter gene, antagonist; HEK-293T; up to 100 µM, CYP24A1 promoter luciferase, together with: 1,25(OH)2D3 10 nM): inactive
COC(=O)[C@@]1(C)C=C(C(=O)Nc2cccc(C(=O)NC34CC(Nc5nccc(-c6cccnc6)n5)(C3)C4)c2)C(=O)CC1 — remaining activity (MAPK10 (Homo sapiens, UniProt P53779); enzyme activity, inhibitor; 0.1829 µM): 0.168 fraction of control
CCOC(=O)/C=C/CNCCCCCN1c2ccccc2CCc2ccc(Cl)cc21 — ubiquitination TR-FRET signal AUC (E3 ubiquitin-protein ligase NEDD4; inhibitor, Ub-TR-FRET; 11.11 µM, 1 h preincubation, HECT domain, together with: ATP 2 mM; higher = more ubiquitination): 20600 a.u. and 46700 a.u. and 22700 a.u. and 53200 a.u. and 45700 a.u. and 22900 a.u.
CCc1ccc(C(=O)Nc2ccccc2C(=O)O)cc1S(=O)(=O)Nc1ccc(Cl)c(Cl)c1 — ligand efficiency (RPA1 N-terminal domain; binding, fluorescence polarisation competition; together with: FITC-ATRIP probe): 0.23
C/C=C/Cn1c(Cc2cc(OC)c(OC)c(OC)c2)nc2c(N)ncnc21 — ΔG (Heat shock protein HSP 90-beta, N-terminal domain (HSP90AB1, Homo sapiens, UniProt P08238); isothermal titration calorimetry; 298 K): -7.34 ± 0.11 kcal/mol
Cc1ccc(C(=O)Nc2ccc(F)cc2C(=O)O)cc1S(=O)(=O)Nc1ccc(Cl)c(Cl)c1 — ligand efficiency (RPA1 N-terminal domain; binding, fluorescence polarisation competition; together with: FITC-ATRIP probe): 0.21
CC(=O)Nc1ncc(CN2CC[C@H](Oc3cccc(F)n3)C[C@@H]2C)s1 [isotope labelled] — specific binding (Protein O-GlcNAcase (Macaca mulatta, UniProt F6QIP2); autoradiography; rhesus monkey hippocampus sections; 5 nM, radiolabelled compound): 10.3 nCi/mg

Repeated from above:
CCc1ccc(C(=O)Nc2ccccc2C(=O)O)cc1S(=O)(=O)Nc1ccc(Cl)c(Cl)c1 — ligand efficiency (RPA1 N-terminal domain; binding, fluorescence polarisation competition; together with: FITC-ATRIP probe): 0.23
NC(=O)c1cn(-c2ccc(F)cc2)c2ccc(CN3CCCOCC3)cc2c1=O — response (Grm2; calcium mobilization, negative allosteric modulator; 30 µM, together with: glutamate 100 µM; relative to: glutamate maximum): 24.2 ± 3.6%
NC(=O)c1cn(-c2ccc(F)cc2)c2ccc(OCc3ccncc3)cc2c1=O — response (Grm2; calcium mobilization, negative allosteric modulator; 30 µM, together with: glutamate 100 µM; relative to: glutamate maximum): 1.63 ± 0.33%
